Measurements of several laboratories.
Protocols differ between the studies behind these lines. Numbers after ± are the reported error.
Organism: Bacillus subtilis

CCN(CC)CCn1nc(C23CC4CC(CC(C4)C2)C3)n(C)c1=S  inhibition zone diameter (IFO 3007; 200 µg/disc, 24 h, 37 °C): 20 mm
O=C(O)CN1C(=O)/C(=C/c2ccc(-c3ccc(N(c4ccccc4)c4ccccc4)cc3)cc2)NC1=S  MBC/MIC ratio (broth microdilution; ATCC 6633): 1
CC(C)=CCC/C(C)=C/CNCCNC1C2CC3CC1CC(O)(C3)C2 (stereo not drawn)  IC50 (microbial growth): > 500 µM
c1ccc(CSc2nnc(C34CC5CC(CC(C5)C3)C4)n2-c2ccccc2)cc1  inhibition zone diameter (IFO 3007; 200 µg/disc, 24 h, 37 °C): 14 mm
COc1ccc(NC(=O)CSc2nc3ccccc3c(=O)n2-c2ccc(S(N)(=O)=O)cc2)cc1  inhibition zone (microbial growth, well diffusion; ATCC6633; 500 µg/mL, 24 h): 21 mm
CCOC(=O)c1cnc(N/N=C/c2c(-c3ccc(OC)cc3)nc3ncccn23)s1  inhibition zone (microbial growth, well diffusion; ATCC6051; 100 µg/mL): 12 mm
Cc1cc([N+](=O)[O-])ccc1NC(=O)CSc1nc2ccccc2c(=O)n1-c1ccc(S(N)(=O)=O)cc1  inhibition zone (microbial growth, well diffusion; ATCC6633; 500 µg/mL, 24 h): 36 mm
Fc1ccc(CSc2nnc(C34CC5CC(CC(C5)C3)C4)n2-c2ccccc2)cc1  inhibition zone diameter (IFO 3007; 200 µg/disc, 24 h, 37 °C): 16 mm
CC[C@H](C)[C@@H]1NC(=O)[C@@H]([C@@H](C)O)NC(=O)CNC(=O)[C@H](CC(=O)O)NC(=O)CNC(=O)[C@H](CC(=O)O)NC(=O)CNC(=O)[C@H]2CCCCN2C(=O)[C@@H](NC(=O)[C@H](CC(=O)O)NC(=O)/C=C/CCCCCCCCCC(C)C)CNC(=O)[C@@H]2CCCN2C1=O  GFP-MinD localization (bacterial cytological profiling; GFP reporter strain; 12.5 µg/mL, 30 min, 30 °C, fluorescence microscopy, with: CaCl2 2 mM): no effect
COc1cc(NC(=O)CSc2nc3ccccc3c(=O)n2-c2ccc(S(N)(=O)=O)cc2)cc(OC)c1  inhibition zone (microbial growth, well diffusion; ATCC6633; 500 µg/mL, 24 h): 24 mm
CCOC(=O)C1=C(C)NC2=C(C(=O)CC(C)(C)C2)C1c1ccc(OCC(=O)NN=Cc2cc(Br)c(O)c(Br)c2)cc1OCC(=O)NN=Cc1cc(Br)c(O)c(Br)c1 (stereo not drawn)  inhibition zone diameter (ATCC 6337; concentration not given, 24 h, 37 °C): 13.2 ± 0.01 mm
CCOC(=O)c1sc(N/N=C/c2c(-c3ccccc3)nc3ncccn23)nc1C  inhibition zone (microbial growth, well diffusion; ATCC6051; 100 µg/mL): 12 mm
Cn1c(SCCN2CCCCC2)nnc1C12CC3CC(CC(C3)C1)C2  inhibition zone diameter (IFO 3007; 200 µg/disc, 24 h, 37 °C): 14 mm
CCOC(=O)c1cnc(N/N=C/c2c(-c3ccc(Cl)cc3)nc3ncccn23)s1  inhibition zone (microbial growth, well diffusion; ATCC6051; 100 µg/mL): 11 mm
CCOc1ccc(NC(=O)CSc2nc3ccccc3c(=O)n2-c2ccc(S(N)(=O)=O)cc2)cc1  inhibition zone (microbial growth, well diffusion; ATCC6633; 500 µg/mL, 24 h): 35 mm

For quick reference, copied from above:
c1ccc(CSc2nnc(C34CC5CC(CC(C5)C3)C4)n2-c2ccccc2)cc1  inhibition zone diameter (IFO 3007; 200 µg/disc, 24 h, 37 °C): 14 mm
CCN(CC)CCn1nc(C23CC4CC(CC(C4)C2)C3)n(C)c1=S  inhibition zone diameter (IFO 3007; 200 µg/disc, 24 h, 37 °C): 20 mm
